Published values from different studies.
Lines come from different studies, so protocols differ. ± gives the spread as reported.
Organism: Plasmodium falciparum

Structure (SMILES) | assay | test system | conditions | IC50
COC1=CC2=NCCc3c[nH]c(c32)C1=O | parasite growth, SYBR Green | W2 | blood stage | 3470 nM
Cc1nc2ccc(F)cc2c2c1C1(C)CC2c2cc(F)ccc2N1 (stereo not shown) | parasite growth, inhibitor, SYBR Green I | 3D7 |  | 353 nM
COc1ccc(CCNC2=CC3=[N+](C)CCc4c[nH]c(c43)C2=O)cc1 | parasite growth, SYBR Green | W2 | blood stage | 99.3 nM
COCCN(C)CC(=O)NC(Cc1ccc(-c2ccccc2)cc1)B(O)O (stereo not shown) | [3H]-hypoxanthine incorporation | 3D7 | 48 h | 98 nM
COc1cncc(-c2cc(F)cc(CNC(=O)c3cc(N4CC[C@@](C#N)(C5CC5)C4=O)cc(C)n3)c2)c1 | parasite growth | conditional knockdown control line | 72 h, with: 3 nM anhydrotetracycline | 252 nM
O=C1C(=O)c2[nH]cc3c2C(=C1Cl)NCC3 | parasite growth, SYBR Green | DD2 | blood stage | 7290 nM
O=C(CCCCCONC(=O)c1nc(-c2ccc(O)cc2)cs1)NO | gametocyte viability, MitoTracker flow cytometry | stage IV-V gametocytes | 72 h | > 2000 nM
O=C1C(O)=C([C@H]2CC[C@H](c3ccc(Cl)cc3)CC2)C(=O)c2ccccc21 | parasite growth, SYBR Green | 3D7 | 72 h, blood stage | 79.7 nM
CCOC(=O)c1ccc2c(c1)C1CC(C)(N2)c2c(C)nc3ccc(C(=O)OCC)cc3c21 (stereo not shown) | parasite growth, inhibitor, SYBR Green I | 3D7 |  | 758 nM
CCC1(CC)CC(=O)N(C2CCOc3ccc(C(=O)NC4CC(C)(C)Oc5ccccc54)cc32)C(=N)N1 (stereo not shown) | merozoite egress | PEXEL-Nluc line |  | ~0.3 nM
CCOC(=O)CCCc1cccc2c(-c3ccc(Oc4ccccc4)cc3)ccnc12 | parasite growth, inhibitor, SYBR Green I | 3D7 |  | 1170 nM
O=C1C(NCCc2cc(Br)c(O)c(Br)c2)=CC2=NCCc3c[nH]c1c32 | parasite growth, SYBR Green | DD2 | blood stage | 1440 nM
O=C(CCCCCONC(=O)c1nc(-c2ccncc2)cs1)NO | asexual blood-stage growth, [3H]hypoxanthine uptake | 3D7 | 72 h | 340 nM
COC(=O)C1=CO[C@@H](C)[C@@H]2Cn3ccc4c5ccccc5nc-4c3C[C@H]12 | growth | 3D7 | 72 h | 178 ± 78 nM
O=C1C(NCCc2ccc(O)cc2)=CC2=NCCc3c(Br)[nH]c1c32 | parasite growth, SYBR Green | DD2 | blood stage | 4440 nM
N[C@H]1C[C@@H](C(=O)O)CC1=C(Cl)Cl | parasite growth, SYBR Green | D6 | blood stage | > 10 µg/mL
COc1ccc(-c2csc(C(=O)NOCCCCCC(=O)NO)n2)cc1 | asexual blood-stage growth, [3H]hypoxanthine uptake | 3D7 | 72 h | 50 nM

Structure (SMILES) | assay | test system | conditions | IC50
COc1cccc2c(-c3ccc(O)c4c3CCN=C4)ccc(OC(C)C)c12 | asexual parasite proliferation, SYBR Green I fluorescence | Dd2 |  | 213 ± 47 nM
C[N+]1=C2C=C(NCCc3c[nH]c4ccccc34)C(=O)c3[nH]cc(c32)CC1 | parasite growth, SYBR Green | W2 | blood stage | 31.3 nM
COc1cc(O)c(-c2cc(-c3cc(-c4c(O)cc5c(c4OC)[C@H](C)N[C@H](C)C5)c4cc(C)cc(OC)c4c3O)c(O)c3c(OC)cc(C)cc23)c2c1[C@H](C)N[C@H](C)C2 | asexual parasite proliferation, SYBR Green I fluorescence | K1 |  | 130 ± 19 nM
O=C1C(NCCc2ccc(O)c(Br)c2)=CC2=NCCc3c[nH]c1c32 | parasite growth, SYBR Green | W2 | blood stage | 1140 nM
COc1cc2c(c(OC)c1)C(C)=[N+](c1ccc(OC)c3c(OC)cc(C)cc13)[C@@H](C)C2 | asexual parasite proliferation, SYBR Green I fluorescence | Dd2 |  | 438 ± 46 nM
CCNCC#CCNc1ccnc2cc(Cl)ccc12 | parasite growth, LDH | 3D7 |  | 22 nM
CC(F)(F)CCCNC[C@@H](O)c1cc(Cl)cc2c1-c1ccc(Cl)cc1C2 | parasite growth | Plasmodium falciparum 3D7, 3D7 | 48 h | 5.1 ± 0.9 nM
COc1cc(C)c(-c2ccc(O)c3c2C[C@@H](C)N[C@@H]3C)c2cccc(O)c12 (single isomer, unassigned) | asexual parasite growth, SYBR Green I | clinical isolate SB_04, Malawi |  | 61 ± 5.2 nM
O=C(CCCCCONC(=O)c1nc(-c2ccc(C(F)(F)F)cc2)cs1)NO | asexual blood-stage growth, [3H]hypoxanthine uptake | 3D7 | 72 h | 200 nM
Oc1ccc(-c2ccc(O)c3ccccc23)c2c1C=NCC2 | parasite growth, SYBR Green | NF54 | blood stage | 744 nM
Cc1cc(N2CC[C@@](C#N)(C3CC3)C2=O)cc(NC(=O)Cc2ccccc2)n1 | parasite growth | conditional knockdown control line | 120 h, with: 3 nM anhydrotetracycline | 51 nM
COc1cccc2c(-c3ccc4c(c3O)[C@@H](C)N[C@H](C)C4)c(CO)cc(OC)c12 | asexual parasite proliferation, SYBR Green I fluorescence | Dd2 |  | 16.2 ± 4.8 nM
COc1c(Br)cc(CCNC2=CC3=NCCc4c[nH]c(c43)C2=O)cc1Br | parasite growth, SYBR Green | DD2 | blood stage | 34.4 nM
COc1cccc2c(-c3ccc(O)c4c3CC(C)(C)N=C4)ccc(OC(C)C)c12 | asexual parasite proliferation, SYBR Green I fluorescence | K1 |  | 147 ± 11 nM
Oc1cccc2c1[nH]c1c(C3=CC4(O)CCC=CCCCCN5CCC3C3(CC6C=CCCCCN6C43)C5)nccc12 (single isomer, unassigned; (+)) | parasite LDH | D6, chloroquine-sensitive | 72 h | 0.0195 ± 0.0106 µg/mL
Cc1cc(N2CCC(CO)(C3CC3)C2=O)cc(C(=O)NCc2cc(F)cc(-c3cnn(C)c3)c2)n1 (stereo not shown) | parasite growth | conditional knockdown control line | 72 h, with: 3 nM anhydrotetracycline | 242 nM
COc1cccc2c(-c3ccc(O)c4c3C[C@@H](C)N[C@@H]4C)c(C)cc(O)c12 | asexual parasite proliferation, SYBR Green I fluorescence | K1 |  | 56 ± 13 nM

Excerpt of the above:
Structure (SMILES) | assay | test system | conditions | IC50
COc1ccc(-c2csc(C(=O)NOCCCCCC(=O)NO)n2)cc1 | asexual blood-stage growth, [3H]hypoxanthine uptake | 3D7 | 72 h | 50 nM
COc1ccc(CCNC2=CC3=[N+](C)CCc4c[nH]c(c43)C2=O)cc1 | parasite growth, SYBR Green | W2 | blood stage | 99.3 nM
N[C@H]1C[C@@H](C(=O)O)CC1=C(Cl)Cl | parasite growth, SYBR Green | D6 | blood stage | > 10 µg/mL
COC1=CC2=NCCc3c[nH]c(c32)C1=O | parasite growth, SYBR Green | W2 | blood stage | 3470 nM
Oc1ccc(-c2ccc(O)c3ccccc23)c2c1C=NCC2 | parasite growth, SYBR Green | NF54 | blood stage | 744 nM
